Measured values collected from several papers.
Every numbered part comes from another study and shows a few of its results, in no order.

Sample 1
Target: Sal-like protein 4, full length isoform A (SALL4, Homo sapiens, UniProt Q9UJQ4, residues 1-1053)
Chain of UniProt Q9UJQ4 (whole entry, looked up): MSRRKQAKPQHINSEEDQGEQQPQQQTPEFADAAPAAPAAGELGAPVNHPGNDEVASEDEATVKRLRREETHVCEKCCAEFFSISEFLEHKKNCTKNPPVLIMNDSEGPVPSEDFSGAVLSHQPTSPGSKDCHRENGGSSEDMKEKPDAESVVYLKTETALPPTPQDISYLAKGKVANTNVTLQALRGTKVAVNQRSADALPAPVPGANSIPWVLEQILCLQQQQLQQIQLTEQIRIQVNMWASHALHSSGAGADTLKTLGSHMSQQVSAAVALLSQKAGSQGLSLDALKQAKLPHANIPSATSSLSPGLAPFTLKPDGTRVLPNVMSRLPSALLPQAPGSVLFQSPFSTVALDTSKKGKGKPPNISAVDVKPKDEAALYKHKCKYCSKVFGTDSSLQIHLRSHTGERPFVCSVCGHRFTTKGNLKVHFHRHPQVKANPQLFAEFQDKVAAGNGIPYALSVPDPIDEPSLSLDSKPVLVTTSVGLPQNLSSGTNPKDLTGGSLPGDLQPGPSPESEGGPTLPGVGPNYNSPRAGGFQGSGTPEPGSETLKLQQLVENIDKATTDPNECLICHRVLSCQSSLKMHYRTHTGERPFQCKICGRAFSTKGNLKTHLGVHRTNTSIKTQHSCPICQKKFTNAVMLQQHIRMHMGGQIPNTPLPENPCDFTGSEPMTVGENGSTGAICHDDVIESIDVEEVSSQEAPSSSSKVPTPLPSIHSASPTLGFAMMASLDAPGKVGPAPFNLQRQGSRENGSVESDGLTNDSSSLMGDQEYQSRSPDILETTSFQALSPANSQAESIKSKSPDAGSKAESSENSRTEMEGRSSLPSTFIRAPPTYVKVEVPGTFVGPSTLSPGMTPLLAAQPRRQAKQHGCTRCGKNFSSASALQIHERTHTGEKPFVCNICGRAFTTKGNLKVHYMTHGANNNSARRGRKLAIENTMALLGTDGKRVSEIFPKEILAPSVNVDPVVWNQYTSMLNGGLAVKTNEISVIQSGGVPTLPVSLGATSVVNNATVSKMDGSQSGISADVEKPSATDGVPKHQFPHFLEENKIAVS
Technique: universal PBM
Molecule type: double-stranded DNA, one strand shown
Sample: in vitro
Tested at: 600 nM
Notes: 8-mer, flanks averaged, mean of replicates
Direction: higher = stronger binding
Strand	E-score
CTGTACGC	-0.104
ACAATATC	0.339
TATGCAAA	0.202
CAAAACTG	0.157
GGCGATCA	-0.136
ACCAAGGA	-0.00252
GCCCAGTA	-0.185
GACGCAAC	-0.148

Sample 2
Target: Phosphate system positive regulatory protein PHO4, full length, GST-tagged (PHO4, Saccharomyces cerevisiae, UniProt P07270, residues 1-312)
Technique: competition protein-binding microarray
Molecule type: double-stranded DNA, one strand shown
Sample: in vitro
Tested at: 2 µM
Notes: whole 60-bp probe, lowest competitor level
Added: Cbf1 competitor, 0.05 µM
Direction: higher = stronger binding
Construct (chain): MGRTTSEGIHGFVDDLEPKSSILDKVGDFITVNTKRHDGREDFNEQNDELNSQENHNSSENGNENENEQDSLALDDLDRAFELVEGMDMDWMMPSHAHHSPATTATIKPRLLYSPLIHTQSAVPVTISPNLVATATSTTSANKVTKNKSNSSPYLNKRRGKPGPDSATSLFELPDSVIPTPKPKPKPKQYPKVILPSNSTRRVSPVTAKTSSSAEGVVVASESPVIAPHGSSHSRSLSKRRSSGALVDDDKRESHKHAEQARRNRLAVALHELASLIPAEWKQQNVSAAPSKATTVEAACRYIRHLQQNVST
Strand	fluorescence intensity [a.u.]
TGTTGAATGCTAACAGACGTGGGTAAGCCAAGACTGGTCTTGATTCGCTTGACGCTGCTG	5950
CTAACGAAGGTTTGTAGCGTGGGTGACAAGCCAAGTGTCTTGATTCGCTTGACGCTGCTG	6400
TGCGCAACAACTTGTCACGCTACTTTATGTCTAGAAGTCTTGATTCGCTTGACGCTGCTG	5170
CTGGAATGGCTCGGCCACATGGGTGGGATTACCCGCGTCTTGATTCGCTTGACGCTGCTG	8980

Sample 3
Target: Histone acetyltransferase KAT6A, both winged helices, GST fusion (KAT6A, Homo sapiens, UniProt Q92794, residues 1-181)
Technique: protein binding microarray
Molecule type: double-stranded DNA, one strand shown
Sample: in vitro
Tested at: not given
Notes: 8-mer, flanks averaged, mean of 2 arrays, mostly near background
Reference: not given
Direction: higher = stronger binding
Residues (chain): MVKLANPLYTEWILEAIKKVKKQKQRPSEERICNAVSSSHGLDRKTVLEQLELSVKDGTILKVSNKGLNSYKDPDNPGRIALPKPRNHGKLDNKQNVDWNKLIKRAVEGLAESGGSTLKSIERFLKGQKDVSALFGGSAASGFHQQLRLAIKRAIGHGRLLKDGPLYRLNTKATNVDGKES
Strand	E-score
CACCAGAA	-0.17
ACGAGCTA	-0.0734
ACGCTTCA	0.135
AAGCGGGA	0.217
AACACAAT	-0.164
CTATGAGA	-0.246
CGGCTGGC	0.119
CTGGACTC	-0.151
AACCGTGA	0.11

Other studies, line by line
Molecule	target	assay	system	conditions	scale	quantity	value
PhoQ, residues 284 288 289 292 302 303 SIHMAM	PhoP, residues 12 14 15 18 19 VHTVL (Escherichia coli, UniProt P23836)	Sort-seq, item: YFP reporter	E. coli	PhoQ-PhoP variant library, added: 10 µM Mg2+	reference: high Mg2+ state, higher = stronger signaling	fold induction	7.84

Some of these lines once more (sample 1):
Strand	E-score
CAAAACTG	0.157
GGCGATCA	-0.136
ACCAAGGA	-0.00252
